Experimental data collected from several papers.
Parts stem from different laboratories: compare values within a part only.

Study 1 — method: EMSA with sequencing; molecule type: double-stranded DNA, one strand shown; sample: in vitro; tested at: 10 and 20 nM; baseline: negative control set to 0; reading: higher = stronger binding
Target: Hepatocyte nuclear factor 3-alpha (Foxa1, Mus musculus, UniProt P35582, residues 1-468, full length assumed)
Notes: whole designed probe, mean of two concentrations, ends assumed
All sequences stand within: GTGAGCGGTGCCCATTGATGGGGAAC … TTTCACTGGGATCGTGGGGAC
Residues (chain): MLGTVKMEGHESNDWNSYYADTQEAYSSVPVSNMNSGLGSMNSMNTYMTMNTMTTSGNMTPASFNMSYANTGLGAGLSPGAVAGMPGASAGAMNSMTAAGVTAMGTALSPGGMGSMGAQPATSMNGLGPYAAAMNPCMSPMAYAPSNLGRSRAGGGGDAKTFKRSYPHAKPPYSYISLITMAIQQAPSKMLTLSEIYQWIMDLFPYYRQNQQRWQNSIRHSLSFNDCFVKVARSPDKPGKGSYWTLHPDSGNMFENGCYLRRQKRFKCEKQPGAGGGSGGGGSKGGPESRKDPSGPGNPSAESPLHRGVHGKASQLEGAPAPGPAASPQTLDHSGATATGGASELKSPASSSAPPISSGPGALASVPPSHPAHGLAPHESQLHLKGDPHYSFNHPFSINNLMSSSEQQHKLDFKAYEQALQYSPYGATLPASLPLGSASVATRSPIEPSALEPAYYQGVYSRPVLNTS
| Oligonucleotide | normalised bound fraction [ratio] |
| --- | --- |
| ATCTTCCCCCTCTTCCTTGCCCCACCAGCTCACCTTCCCGGGTTATTTGCAGATAGGAAAATAAATAAAGCCGGCATTCGTTAACGCAGTTCACGCGCATACTGCTGTTTGCTCTGCATCTAACATGGTCCTTACGCGAGGCGTGGCTCCGGGAGAGCAAAGCACCGTGTCAGGCGCATGATCCGGGGTGGCC | 0.365 |
| TATAATTACATTACCTGATTAAGAAATTATGATGCAGAATAAAATGATTATGAAAGGTGATGACTTTAAATAAAATCTATCCTAAAGTATTCTTTGTTTACTTAGTAAAGCATGTGATTAGCAAAATTACATAGTACTCTGCTCTTCCTAGTTACGTATTTTTGAAGGAAAGCAAATAACATGCATTCAGCAC | 0.581 |
| AACTAACCCAGTCCCAGGAGAACTGCATTAATCCCTTTGTGAGGGCGAAGTCCCTATGACTCACCTCTTAAAGGTCCTATTACCTCTCCATACTGTTGACATTGGCAATTAAATTTCAACATGAGTTTTGGTAGAGACAAACCACATCCAAACCATAGCAATAGTAAAGGTGTCCCCTGCTCCCCTCCTCCAC | 0.206 |
| AAAATACCTACTGAAATTAAAATACCAGGATAGGACAAAATGATCTTTGATGTTGTTTCCAATTATCTCGTGTTTGTTCTAGGCACTGGCTATGTCAACAAAGCTTCGCCTTTTTTTTTTTTTCATGGTGACACAACCATGGCTGTGTTCAGGTTTACATGTTCTTACTTGTGTATTGGGGAAGGTTGGCCCC | 0.469 |
| TTGCATTTTCTAAACAAAATTTTAAAAAGATATCATGTGTACATACAGGTCAAAAGTATTTGAGCTAAGAATGCCAAAGTCCTTACTTCCCTTGTTTACTTAAGCTATAGCTTAGACACTTGGTATTTATCGATATTTTAAAGTAATCGACCAGGATTTTACATATCATATTCCTTAAAATAAAGATGTATGG | 0.515 |
| GAGAACTTTTTTCATATAATTATTTTAAAAATTGTTTTATTCTTAAAGCAATTGATATTATCTACTAAAAAATTTTTAGTAGTGAAATGACATGTTTACATTGTCTTTAGAAAAATACTTCTAGCAATGTGAAGTTCAATGAGAAAGATATACACATAAATATTGTATTTTGTTTCTCTTGGTTTATGTGTAT | 0.324 |
| CAATGGGGTAGGTCAGCCCCAGTGAACTCTCAAATGACCACTGAAGGAGGAAGTGAGTGCAGAGTGTGATACCACTCACATCCCAGCCCAGACTGTTTGCTCAGCTGGGAGGTTCTTCCTGCAAGTGTTGCAATTCGAGATAACACCCCTTCTCATGGCTTCAGGCATCACCTATCTCCTCTAGGCTGCGCTC | 0.196 |
| ATCCACGAACCTGGCCCTGTCTGGTAACCACAGTGAACCATCGCAAGATACAGCACTATGTGTAATGACTCACCCCAGTTGGGCTGGAAATGTGTCAACACTGGCACATCCTCAGGGACACGGAAGTGTACTTGTTTTTGGAGAGGGACTAGACCTTCATCCTTGAGGTGAAGAAGATTTTCTCTCCAGGGTG | 0.0559 |

Study 2 — method: RNA Bind-n-Seq; molecule type: RNA; sample: in vitro; tested at: 100 nM; baseline: input RNA pool; reading: higher = stronger binding
Target: RING finger protein unkempt homolog, zinc fingers 1-6, SBP tag (UNK, Homo sapiens, UniProt Q9C0B0, residues 30-357)
Sequence of UniProt Q9C0B0 (30-357, looked up): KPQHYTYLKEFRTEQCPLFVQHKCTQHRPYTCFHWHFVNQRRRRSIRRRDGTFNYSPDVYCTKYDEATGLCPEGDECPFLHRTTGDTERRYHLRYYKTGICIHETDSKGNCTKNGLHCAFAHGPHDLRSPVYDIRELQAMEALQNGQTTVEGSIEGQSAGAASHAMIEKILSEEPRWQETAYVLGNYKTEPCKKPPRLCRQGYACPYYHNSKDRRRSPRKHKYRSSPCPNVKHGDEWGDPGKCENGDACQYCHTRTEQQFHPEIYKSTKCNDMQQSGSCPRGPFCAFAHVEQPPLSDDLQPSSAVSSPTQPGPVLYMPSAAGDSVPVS
Notes: RNA with constant flanks, vertebrate orthologous sites, ends assumed
All sequences stand within: GGGAGUUCUACAGUCCGACGAUC … CAACAGAGGAUUGAGCAUCA
| Oligonucleotide | bound/input enrichment [ratio] |
| --- | --- |
| CCGAAAGGCCAAAUUCCCUCCUCCCUUCUACUGCUUCUACCAACUGGAAGCACAGAAAACUAGAAUUACAUUUAUUUUGUUUUUUAAAAUAUAUGUUGAUUUCGUGUAACAUUCAAUAGG | 0.728 |
| AUCCUUUUGGAGUGUCCCUGGCCAGGACCAAGAACCAGACAUUUCAUGGAGGACCUGUACUUAAAAGGCUUUUUUAAACAGCCGUACAGGAGGUGUCACCUCGCAGGCGAGCGGACUUCU | 0.26 |
| UGAGCGUUGGAAGACCAGCAUAUGAGGUUGUGGUCAAAAAGUAGGAGCAGCUGGGGAAAGAAGUUACAAAUAUCAAUCGCCAUGUGGCUAAAAGGUGGAGACGAAGAUCAUCGAAACUCA | 0.498 |
| AAUUGAGCAAAAACGUUUCCACUGGGUUUUGCGUGUAAGAAAAAAAUGUACCUGAGCACAUAGAGCUUUUUAAUAGCACUAACCAAUGCCUUUUUAGAUGUAUUUUUGAUGUAUAUAUCU | 0.981 |
| CUCUAUGGGCCUCGCAGAGUUGAAAUAAUGGAAGAGGAAAGUGAACAGUAGUAUUCAUUUUAGUAUUUAUGCAUAGGUGUGAAAUAAAUGUUAUUCGUUGAUCAUUUCUACAAUCUAGAG | 1.33 |
| CAGCAGAUUCUCUCAUAGGGAGAGCUGCACACAUUGCUGUUCUUGAUUCAGAAAUAUUUUUAGAAAAAUUCUUUCUUGUUGCUGCCCUAAAAUAUUUUCAGUAGAGAAAAGCAUUGUCAG | 0.295 |
| AUUCAAACCUGUGGUACCAUGGCCUCAUGUUGAAGGAGUAGAAGUGGACUUAGAGUCUAUUAGAAGAAAAAACAAGGCGAAAAAUGAACAAGAGCGCCAUGCUGGAGGAGAUAAGCAGAA | 0.763 |
| CCAGUUUUCCAUAUAGGGUUGGCCUCAAAUCUAUAGGAUUUUUGACAAAUGUACCAUAUCUAGUUGUGUUGUUUUACUAUUUUUUUUAUUAGCCUGUAAAUAAAGAUGGCAUCUCUCCUA | 1.23 |
| GUGUUUUGUACAGGGCAUUCUCUGUACUAGUUUGUUGUGGUUAUAAAACAAUUAGCAGAAUAGCCUACAUUUGUAUUUAUUUUCUAUUCCAUACUUCUGCCCACGUUGUUUUCUCUCAAA | 1.42 |
| AAUUUUCUUAUUAUAGGUAUCAUUGCCCAAUGCCCAAGAUAUUUUAUGUUCAGCUGACUGUAGGAAAUAAUGAGUUUUUUGGGGAAGGGAAGACCCGACAAGCUGCUAGACACAAUGCUG | 1.51 |
| CCGAAAGGCCAAAUUCCCUCCUCCCUUCUACUGCUUCUACCAACUGGAAGCACAGAAAACUAGAAUUUCAUUUAUUUUGUUUUUAAAAUAUAUAUGUUGAUUUCUUGUAACAUCCAAUAG | 0.655 |

Study 3 — method: protein-binding microarray; molecule type: double-stranded DNA, one strand shown; sample: in vitro; tested at: 2540 nM top; notes: 60-bp whole probe; added: salmon DNA 0.4 mg/ml; baseline: random background probes; reading: higher = stronger binding; all sequences stand within: GCCTAGCAC … GTCTTGATTCGCTTGACGCTGCTG
Target: Interferon regulatory factor 3, full length, phosphomimetic (IRF3, Homo sapiens, UniProt Q14653, residues 1-427, S386D/S396D/S398D/S402D/T404D/S405D)
Sequence of UniProt Q14653 (whole entry, unmodified, looked up): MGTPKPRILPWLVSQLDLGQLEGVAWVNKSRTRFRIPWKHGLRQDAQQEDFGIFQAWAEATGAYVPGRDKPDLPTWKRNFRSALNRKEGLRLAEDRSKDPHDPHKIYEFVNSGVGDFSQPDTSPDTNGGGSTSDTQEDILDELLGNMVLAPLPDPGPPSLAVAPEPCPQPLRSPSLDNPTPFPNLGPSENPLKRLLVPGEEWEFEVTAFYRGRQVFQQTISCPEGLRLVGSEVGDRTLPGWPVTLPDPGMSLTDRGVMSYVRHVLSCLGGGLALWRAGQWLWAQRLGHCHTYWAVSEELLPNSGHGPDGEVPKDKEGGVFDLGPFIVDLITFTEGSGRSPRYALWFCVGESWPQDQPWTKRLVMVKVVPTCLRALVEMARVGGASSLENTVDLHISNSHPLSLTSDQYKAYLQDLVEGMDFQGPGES
| Oligonucleotide | fitted relative affinity |
| --- | --- |
| TCATTTTCACTTTTCCTACTGTGCTAG | 5.01 z-score |
| TTAGGTTTCAGGACTGGGTTAGTGCTA | 2.39 z-score |
| CCAAGGTTCAAGTTTACCCATGTGCTA | 0.11 z-score |
| TCACAATTTGCTTTAGTACTGTGCTAG | 0.45 z-score |
| AACGGTTTCCTTCTCCTGACGTGCTAG | 9.91 z-score |
| TTAGGTTTCGGTTCCGGTTGGTGCTAG | 10.8 z-score |
| GACGGTTTCCAACTGCTGACGTGCTAG | 4.75 z-score |
| TCATGTTTCTAATATTCTACTGTGCTA | 1.11 z-score |
| TTAGGTCACGGTCTCGGTTAGTGCTAG | 0.188 z-score |
| TTAGGACTGGGGTATCCGTTAGTGCTA | -0.152 z-score |
| GACGAACTGAGTCTCGAGAAGTGCTAG | -0.349 z-score |
| TCATTTTTTTTTTTTGGACTGTGCTAG | 1.17 z-score |
| TTAGGTATCGGTCTCGGCTAGTGCTAG | 4.21 z-score |
| TCAGCTATACCACTCTTACTGTGCTAG | 0.191 z-score |
| GACGGTACCGACACTGGGGACGTGCTA | 0.0872 z-score |
| TCAGTTTCCATTTTCTGACTGTGCTAG | 10.7 z-score |
| TTAGATCTCAGACTGGATTCGTGCTAG | -0.00729 z-score |
| TTAGATATCAGTATTGATTAGTGCTAG | 0.855 z-score |

Study 4 — method: protein binding microarray; molecule type: double-stranded DNA, one strand shown; sample: in vitro; tested at: not given; baseline: not given; reading: higher = stronger binding
Target: Histone acetyltransferase KAT6A, winged helix 1, GST fusion (KAT6A, Homo sapiens, UniProt Q92794, residues 1-85)
Notes: 8-mer, flanks averaged, mean of 2 arrays, mostly near background
Residues (chain): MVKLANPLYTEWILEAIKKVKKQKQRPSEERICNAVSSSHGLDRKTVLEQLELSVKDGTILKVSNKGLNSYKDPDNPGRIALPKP
| Oligonucleotide | E-score |
| --- | --- |
| GGCAGTAC | 0.136 |
| CTGGGCCC | -0.119 |
| GGCTAGTA | -0.2 |
| GGTGCGAC | 0.267 |
| AAGCGCAT | 0.229 |
| ATGAAATA | -0.228 |
| GGTAAGAA | -0.0381 |
| TCTGCGCA | 0.196 |
| CAGCTCGA | -0.0881 |
| TACCCCGA | 0.191 |
| CGAATGAG | -0.0485 |
| CGCTCGTA | 0.0905 |
| CAGACCCC | -0.0956 |
| AGGATGAT | -0.149 |
| AGAGTTAG | -0.164 |
| CGGGTGCC | 0.375 |

Study 5 — method: universal PBM; molecule type: double-stranded DNA, one strand shown; sample: in vitro; tested at: not given; reading: higher = stronger binding
Target: Sal-like protein 4, full length isoform B (SALL4, Homo sapiens, UniProt Q9UJQ4-2, residues 1-616)
Notes: 8-mer, flanks averaged, mean of replicates
Residues (chain): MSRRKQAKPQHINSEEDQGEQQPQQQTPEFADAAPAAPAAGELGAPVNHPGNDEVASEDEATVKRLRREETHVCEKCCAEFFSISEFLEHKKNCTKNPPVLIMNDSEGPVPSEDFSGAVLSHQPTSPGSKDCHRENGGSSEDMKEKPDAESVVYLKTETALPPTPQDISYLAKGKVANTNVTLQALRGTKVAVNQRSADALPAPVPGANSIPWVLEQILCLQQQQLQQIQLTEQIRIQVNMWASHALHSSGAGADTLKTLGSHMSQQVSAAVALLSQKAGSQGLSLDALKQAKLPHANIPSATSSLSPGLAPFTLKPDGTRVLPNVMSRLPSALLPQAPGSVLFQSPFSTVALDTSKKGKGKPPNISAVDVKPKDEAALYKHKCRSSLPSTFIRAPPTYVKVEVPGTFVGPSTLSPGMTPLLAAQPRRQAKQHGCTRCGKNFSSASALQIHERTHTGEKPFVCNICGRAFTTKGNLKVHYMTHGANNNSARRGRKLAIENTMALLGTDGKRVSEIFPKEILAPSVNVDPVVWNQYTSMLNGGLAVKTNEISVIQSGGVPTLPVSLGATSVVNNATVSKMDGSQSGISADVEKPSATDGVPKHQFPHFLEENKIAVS
| Oligonucleotide | E-score |
| --- | --- |
| ACCCTGCA | -7e-05 |
| CATGCTGG | -0.138 |
| AAAGACTC | -0.0153 |
| AGGTGCCC | -0.221 |
| CGACCGAA | -0.18 |
| ACGGGGAA | -0.0403 |
| CCTTAGCG | -0.23 |
| ACGTCATC | -0.108 |
| GATGGCGC | -0.272 |
| CACGTCCA | -0.114 |
| GGTGACCA | -0.16 |
| ACTTGCTC | 0.0327 |
| AACGTAGA | 0.111 |
| TAAAGGCA | 0.11 |
| AGACTCTG | -0.23 |
| CCGGGACC | -0.385 |
| CCTACGAC | -0.0409 |
| AGGACCCA | -0.271 |
| ATCGACCC | -0.149 |
| ATGGCCCC | -0.324 |
| CACCTAGG | -0.207 |

Some of these lines once more (study 3):
| Oligonucleotide | fitted relative affinity |
| --- | --- |
| TTAGGTTTCAGGACTGGGTTAGTGCTA | 2.39 z-score |
| CCAAGGTTCAAGTTTACCCATGTGCTA | 0.11 z-score |
| TCACAATTTGCTTTAGTACTGTGCTAG | 0.45 z-score |
| AACGGTTTCCTTCTCCTGACGTGCTAG | 9.91 z-score |
| TTAGGTTTCGGTTCCGGTTGGTGCTAG | 10.8 z-score |
| GACGGTTTCCAACTGCTGACGTGCTAG | 4.75 z-score |
| TCATGTTTCTAATATTCTACTGTGCTA | 1.11 z-score |
